Experimental data of several laboratories.
Protocols differ between the studies behind these lines. ± gives the spread as reported. Converted amounts (≈) assume the structure as drawn. Where no end group is shown, it is not given here. Ends that are not written are not given here. * marks the point of attachment.
SCN9A: Sodium channel protein type 9 subunit alpha (SCN9A, Homo sapiens, UniProt Q15858)
Chain of UniProt Q15858 (whole entry, looked up): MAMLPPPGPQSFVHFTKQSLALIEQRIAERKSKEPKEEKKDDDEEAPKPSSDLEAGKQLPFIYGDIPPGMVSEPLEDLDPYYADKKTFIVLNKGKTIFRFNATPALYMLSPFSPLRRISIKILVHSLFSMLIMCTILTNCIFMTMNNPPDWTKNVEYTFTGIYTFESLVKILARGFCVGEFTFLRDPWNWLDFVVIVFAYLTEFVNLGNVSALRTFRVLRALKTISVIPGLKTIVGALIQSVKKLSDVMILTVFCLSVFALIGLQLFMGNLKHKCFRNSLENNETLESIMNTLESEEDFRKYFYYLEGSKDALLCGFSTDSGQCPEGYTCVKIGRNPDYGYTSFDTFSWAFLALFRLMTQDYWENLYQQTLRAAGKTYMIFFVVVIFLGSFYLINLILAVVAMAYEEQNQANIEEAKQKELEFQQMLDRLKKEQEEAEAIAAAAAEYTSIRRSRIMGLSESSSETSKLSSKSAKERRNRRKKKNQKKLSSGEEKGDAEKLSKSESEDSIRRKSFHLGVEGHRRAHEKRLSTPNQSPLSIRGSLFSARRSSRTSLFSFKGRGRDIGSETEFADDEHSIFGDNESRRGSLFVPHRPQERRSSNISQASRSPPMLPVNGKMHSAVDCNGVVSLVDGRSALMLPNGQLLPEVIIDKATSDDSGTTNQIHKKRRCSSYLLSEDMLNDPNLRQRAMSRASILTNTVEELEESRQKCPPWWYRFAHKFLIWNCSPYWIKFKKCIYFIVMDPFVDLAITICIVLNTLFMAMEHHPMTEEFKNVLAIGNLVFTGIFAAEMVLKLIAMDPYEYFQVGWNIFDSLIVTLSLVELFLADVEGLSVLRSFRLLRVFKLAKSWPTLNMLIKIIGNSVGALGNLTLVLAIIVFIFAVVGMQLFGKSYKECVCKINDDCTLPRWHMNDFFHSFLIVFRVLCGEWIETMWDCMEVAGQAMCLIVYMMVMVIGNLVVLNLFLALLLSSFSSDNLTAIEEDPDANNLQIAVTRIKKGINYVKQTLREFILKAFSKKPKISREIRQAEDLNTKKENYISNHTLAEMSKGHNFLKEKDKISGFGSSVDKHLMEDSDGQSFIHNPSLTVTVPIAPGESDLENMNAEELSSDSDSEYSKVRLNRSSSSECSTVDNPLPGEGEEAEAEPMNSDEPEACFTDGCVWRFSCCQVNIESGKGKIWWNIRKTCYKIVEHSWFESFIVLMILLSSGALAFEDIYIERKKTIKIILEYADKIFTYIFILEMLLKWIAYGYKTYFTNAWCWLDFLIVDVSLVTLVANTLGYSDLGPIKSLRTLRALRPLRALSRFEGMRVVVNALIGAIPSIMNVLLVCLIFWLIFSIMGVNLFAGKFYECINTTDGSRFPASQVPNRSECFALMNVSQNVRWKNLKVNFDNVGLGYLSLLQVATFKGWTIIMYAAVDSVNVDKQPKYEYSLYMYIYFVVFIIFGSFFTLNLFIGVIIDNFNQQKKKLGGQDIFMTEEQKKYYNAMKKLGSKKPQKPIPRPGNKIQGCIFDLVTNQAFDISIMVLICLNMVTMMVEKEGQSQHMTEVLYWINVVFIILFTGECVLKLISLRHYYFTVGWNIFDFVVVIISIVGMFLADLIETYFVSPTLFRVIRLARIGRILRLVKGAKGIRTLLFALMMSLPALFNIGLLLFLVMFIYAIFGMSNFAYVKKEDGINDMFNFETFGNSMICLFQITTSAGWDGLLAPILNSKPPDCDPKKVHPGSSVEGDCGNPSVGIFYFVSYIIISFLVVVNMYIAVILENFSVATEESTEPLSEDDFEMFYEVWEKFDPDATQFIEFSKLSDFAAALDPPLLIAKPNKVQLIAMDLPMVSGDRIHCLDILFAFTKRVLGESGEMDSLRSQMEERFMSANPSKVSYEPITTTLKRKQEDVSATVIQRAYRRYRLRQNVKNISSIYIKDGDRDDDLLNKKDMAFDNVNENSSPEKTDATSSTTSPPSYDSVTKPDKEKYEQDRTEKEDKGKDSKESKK
MAL12: Alpha-glucosidase MAL12 (MAL12, Saccharomyces cerevisiae S288c, UniProt P53341)
Chain of UniProt P53341 (whole entry, looked up): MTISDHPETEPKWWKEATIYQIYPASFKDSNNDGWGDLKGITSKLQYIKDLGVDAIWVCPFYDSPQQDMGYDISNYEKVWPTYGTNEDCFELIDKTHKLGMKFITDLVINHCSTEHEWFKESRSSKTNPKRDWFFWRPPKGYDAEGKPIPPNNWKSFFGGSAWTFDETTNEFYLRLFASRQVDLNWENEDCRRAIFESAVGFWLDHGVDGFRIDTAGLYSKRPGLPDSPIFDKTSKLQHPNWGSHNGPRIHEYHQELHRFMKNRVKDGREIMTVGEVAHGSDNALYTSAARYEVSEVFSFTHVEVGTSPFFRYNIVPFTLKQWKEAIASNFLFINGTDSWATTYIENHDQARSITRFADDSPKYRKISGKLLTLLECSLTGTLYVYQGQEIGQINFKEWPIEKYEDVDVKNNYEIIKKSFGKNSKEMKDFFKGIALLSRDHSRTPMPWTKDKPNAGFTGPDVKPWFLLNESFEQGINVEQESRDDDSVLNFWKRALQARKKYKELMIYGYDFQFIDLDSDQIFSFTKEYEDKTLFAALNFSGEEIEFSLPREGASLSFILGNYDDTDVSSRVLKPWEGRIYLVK
WWOX WW1 domain: WW domain-containing oxidoreductase, WW1 domain (WWOX, Homo sapiens, UniProt Q9NZC7)
Chain of UniProt Q9NZC7 (whole entry, unmodified, looked up): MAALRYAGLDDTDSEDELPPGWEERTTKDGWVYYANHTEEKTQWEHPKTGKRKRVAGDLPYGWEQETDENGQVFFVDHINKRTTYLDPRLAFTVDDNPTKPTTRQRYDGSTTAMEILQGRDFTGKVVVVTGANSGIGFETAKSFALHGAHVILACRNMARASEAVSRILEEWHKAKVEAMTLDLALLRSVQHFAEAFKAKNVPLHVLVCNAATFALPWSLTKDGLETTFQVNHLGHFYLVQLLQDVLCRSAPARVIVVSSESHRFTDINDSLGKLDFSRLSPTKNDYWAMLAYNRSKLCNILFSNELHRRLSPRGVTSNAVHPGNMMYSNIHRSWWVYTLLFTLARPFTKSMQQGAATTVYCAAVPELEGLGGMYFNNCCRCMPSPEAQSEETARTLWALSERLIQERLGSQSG
T1: G-quadruplex DNA (Homo sapiens); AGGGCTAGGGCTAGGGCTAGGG
B1: disulfide; chain GLIHQYCQGYWRHVPPSPREAPGAPRSPEPDQKKPRNRRHHPPDT (disulfide (positions not given here))
Chain of UniProt P69905 (whole entry, looked up): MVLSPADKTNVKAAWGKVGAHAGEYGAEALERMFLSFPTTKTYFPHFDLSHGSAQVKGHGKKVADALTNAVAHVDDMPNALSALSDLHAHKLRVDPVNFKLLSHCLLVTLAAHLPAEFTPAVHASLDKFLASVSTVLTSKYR
Chain of UniProt Q02083 (whole entry, looked up): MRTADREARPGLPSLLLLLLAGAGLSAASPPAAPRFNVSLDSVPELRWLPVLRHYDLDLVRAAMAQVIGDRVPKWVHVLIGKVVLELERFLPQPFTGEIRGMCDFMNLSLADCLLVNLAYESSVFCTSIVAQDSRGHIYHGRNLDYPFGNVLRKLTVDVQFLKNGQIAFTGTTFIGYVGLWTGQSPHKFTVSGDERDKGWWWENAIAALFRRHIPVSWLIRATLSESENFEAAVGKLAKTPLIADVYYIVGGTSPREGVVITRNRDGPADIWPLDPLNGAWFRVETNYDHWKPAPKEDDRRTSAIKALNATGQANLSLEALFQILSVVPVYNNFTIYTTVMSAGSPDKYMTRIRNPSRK
Chain of UniProt O60462 (whole entry, looked up): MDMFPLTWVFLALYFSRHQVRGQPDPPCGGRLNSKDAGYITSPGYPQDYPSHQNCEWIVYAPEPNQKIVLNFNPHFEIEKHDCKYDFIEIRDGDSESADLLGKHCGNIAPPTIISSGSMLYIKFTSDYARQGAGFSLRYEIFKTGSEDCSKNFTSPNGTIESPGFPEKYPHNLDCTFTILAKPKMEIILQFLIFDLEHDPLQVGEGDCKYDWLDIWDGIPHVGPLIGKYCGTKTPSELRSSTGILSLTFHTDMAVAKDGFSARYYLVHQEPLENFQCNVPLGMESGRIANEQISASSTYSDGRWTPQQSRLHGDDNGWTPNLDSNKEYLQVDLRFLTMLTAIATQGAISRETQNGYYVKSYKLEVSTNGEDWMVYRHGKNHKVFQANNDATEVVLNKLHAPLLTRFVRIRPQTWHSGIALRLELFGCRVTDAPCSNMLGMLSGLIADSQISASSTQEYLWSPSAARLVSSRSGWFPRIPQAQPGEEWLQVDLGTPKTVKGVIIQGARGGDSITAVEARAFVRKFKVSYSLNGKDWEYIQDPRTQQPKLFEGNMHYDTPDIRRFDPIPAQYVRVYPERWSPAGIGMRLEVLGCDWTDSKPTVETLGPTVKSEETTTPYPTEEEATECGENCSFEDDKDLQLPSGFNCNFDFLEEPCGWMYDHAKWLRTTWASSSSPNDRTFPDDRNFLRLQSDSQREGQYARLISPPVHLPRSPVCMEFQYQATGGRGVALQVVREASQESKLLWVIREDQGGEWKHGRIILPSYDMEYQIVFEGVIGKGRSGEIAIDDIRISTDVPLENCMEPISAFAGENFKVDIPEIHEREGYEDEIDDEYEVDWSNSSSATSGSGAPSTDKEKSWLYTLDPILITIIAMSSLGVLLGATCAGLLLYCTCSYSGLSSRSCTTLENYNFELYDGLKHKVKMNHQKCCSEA
Chain of UniProt P01901 (whole entry, looked up): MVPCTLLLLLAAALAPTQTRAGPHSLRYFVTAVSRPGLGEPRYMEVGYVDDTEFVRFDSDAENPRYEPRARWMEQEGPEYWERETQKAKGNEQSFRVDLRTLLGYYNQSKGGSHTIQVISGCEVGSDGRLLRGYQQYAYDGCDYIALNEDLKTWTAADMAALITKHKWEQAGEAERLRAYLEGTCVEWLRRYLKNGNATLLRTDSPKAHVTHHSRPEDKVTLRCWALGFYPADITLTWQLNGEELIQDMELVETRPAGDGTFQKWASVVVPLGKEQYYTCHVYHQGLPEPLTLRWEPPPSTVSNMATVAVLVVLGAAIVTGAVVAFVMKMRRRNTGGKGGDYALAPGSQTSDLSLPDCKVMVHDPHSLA
Chain of UniProt Q05097 (whole entry, looked up): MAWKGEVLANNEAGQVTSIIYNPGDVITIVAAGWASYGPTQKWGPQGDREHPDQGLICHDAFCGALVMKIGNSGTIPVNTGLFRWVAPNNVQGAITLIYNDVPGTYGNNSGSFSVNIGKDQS

COC(=O)c1scc(C)c1NC(=O)C(C)NCCN1CCOCC1 (centres unmarked): “capacity factor k′” 104 (SCN9A; cell membrane chromatography; higher = stronger binding).
For `RCTKLEYDPRCVYDP`, “patients with IgE binding” read 81% (human IgE; peptide microarray; peptide, peanut/walnut-allergic patient sera; concentration not given, 16 h, 4 °C).
CCOCc1ccc(C=O)o1 has a P50 change of 39.8 ± 0.8% (Hemoglobin subunit alpha, with sickle beta chain (HBA1, Homo sapiens, UniProt P69905); oxygen affinity; sickle red cell lysate; 2 mM; reference: untreated).
For CCCCOC(=O)c1scc(C)c1NC(=O)C(C)NCCC (centres unmarked), “capacity factor k′” read 73 (SCN9A; cell membrane chromatography; higher = stronger binding).
With O=C[C@H](O)[C@@H](O)[C@@H](O)[C@H](O)CO the MIC was 3.12 mM (≈ 563 µg/mL) (lecA (Pseudomonas aeruginosa, UniProt Q05097); hemagglutination, inhibitor; rabbit erythrocytes; 30 min, 4 °C).
CSc1ccc(/C=C2/C(C)=C(CC(=O)O)c3cc(F)ccc32)cc1 — result for IC50: “inactive” (PDE2A (Homo sapiens, UniProt O00408); cAMP hydrolysis, inhibitor, IMAP fluorescence polarization; up to 200 µM).
The IC50 of CCCCCC(O)/C=C/C=O (centres unmarked) is reported as 51.8 µM (HSPA5 (Homo sapiens, UniProt P11021); ATPase activity, covalent inhibitor; 1 h preincubation, pH 7.4, 37 °C, estimated value, with: ATP 0.1 mM).
`Ac-KIVTSAK (N-acetyl)` gave a remaining aggregation of ≥ 90% (Alpha-synuclein (SNCA, Homo sapiens, UniProt P37840); fibril formation, thioflavin T fluorescence; peptide; 2 molar equivalents, 16 h, 37 °C, 1.5 % HFIP, with: α-synuclein 100 µM; reference: untreated).
For C[n+]1cc(NC(=O)c2ccc3ccc4ccc(C(=O)Nc5cc6ccccc6[n+](C)c5)nc4c3n2)cc2ccccc21, the Kd was 0.0168 µM (T1, G-quadruplex DNA (Homo sapiens); Cy5 fluorescence quenching titration; pH 7.2, KCl 100 mM, first transition).
For CCCCCCCCCCCCCCCC(=O)O, “acyl loading of EcdA-M1” read 27% (Fatty-acyl-AMP ligase ecdI (ecdI, Aspergillus rugulosus, UniProt K0E2F3); substrate; ~40 µM, 30 min, pH 7.0, ambient, with: holo-EcdA-M1 10 µM, ATP 5 mM).
For O=C(O)c1ccccc1Nc1cccc(C(F)(F)F)c1, the inhibition was 30% (Trpm8 (Mus musculus, UniProt Q8R4D5); ion current, two-electrode voltage clamp; Xenopus oocytes; 100 µM, -100 mV, with: menthol 100 µM).
`B1`: “sedimentation coefficient, dimer peak” 4.65 S (Neuropilin-2 (NRP2, Homo sapiens, UniProt O60462); sedimentation velocity AUC; 2.5-fold molar excess, pH 7.5, 4 °C, 8 µM b1b2 domain).
For `LFPVIYTQM`, the MFI increase was 128% (H-2 class I histocompatibility antigen, K-B alpha chain, 26 (H2-K1, Mus musculus, UniProt P01901); H2-K binding, flow cytometry; peptide, RMA-S; 10 µg per 100 µL, 3 h).
The Emax of CNC(=O)[C@@]12C[C@@H]1[C@@H](n1cnc3c(NCc4cccc(Cl)c4)nc(C#CCCCCc4cn(C56CC7CC(CC(C7)C5)C6)nn4)nc31)[C@H](O)[C@@H]2O is reported as < 50% (ADORA3 (Homo sapiens, UniProt P0DMS8); cAMP inhibition, agonist; CHO; 10 µM, with: forskolin; reference: NECA at 10 µM).
The inhibition of CC[C@]1(O)C[C@H]2CN(CCc3c([nH]c4ccccc34)[C@@](C(=O)OC)(c3cc4c(cc3OC)N(C=O)[C@H]3[C@@](O)(C(=O)OC)[C@H](OC(C)=O)[C@]5(CC)C=CCN6CC[C@]43[C@@H]65)C2)C1 is reported as 69.4% (SLC22A5 (Homo sapiens, UniProt O76082); transporter uptake, inhibitor; 50 µM).
C=C1c2cccc(O)c2C(=O)C2=C(O)[C@]3(O)C(=O)C(C(N)=O)=C(O)[C@@H](N(C)C)[C@@H]3[C@@H](O)[C@H]12: “reduction in bound oligomers” 15 to 20% (Alpha-synuclein, oligomers (SNCA, Homo sapiens, UniProt P37840); oligomer-vesicle binding, FIDA; 5 µM, with: 150 nM oligomers, 50 µM DOPG liposomes; reference: untreated).
With COc1ccc2c(=O)c(OC)c(-c3ccccc3)oc2c1 the inhibition was < 1% (MAL12; enzyme activity, inhibitor; 10 µM, with: p-nitrophenyl α-D-glucopyranoside).
CC(C)C[C@H](NC(=O)[C@@H](NC(=O)[C@@H](N)[C@@H](C)O)C(C)C)C(=O)N[C@@H](C)C(=O)N1CCC[C@H]1C(=O)N1CCC[C@H]1C(=O)N1CCC[C@H]1C(=O)N[C@@H](Cc1ccc(O)cc1)C(=O)N[C@@H](CCCNC(=N)N)C(=O)N[C@@H](Cc1c[nH]cn1)C(=O)N[C@@H](CCCNC(=N)N)C(=O)N[C@@H](CC(N)=O)C(=O)O — result for “binding enthalpy ΔH”: -3.33 ± 0.42 kcal/mol (WWOX WW1 domain; binding to WW1 domain, isothermal titration calorimetry; concentration not given, pH 7.0, 25 °C).
For CCCCCCCCCN[C@H]1CNC1=O, IC50 read “inactive” (NAAA (Homo sapiens, UniProt Q02083); enzyme activity, inhibitor, fluorogenic PAMCA hydrolysis; pH 4.5, with: 5 µM PAMCA).
COc1c(-c2ccc(O)cc2)oc2c(OC)c(O)cc(O)c2c1=O gave an inhibition of 82.5 ± 0.8% (MAL12; enzyme activity, p-nitrophenyl glucoside substrate; 10 µM, series down to 1 µM).
With CC(C)(C)OC(=O)OCc1ccc(C=O)o1 the peak modification was 25.1% (Hemoglobin subunit alpha, with beta chain (HBA1, Homo sapiens, UniProt P69905); measured: haemoglobin A adduct; human normal whole blood; 2 mM, 24 h, hematocrit 30%).
CC(C)C[C@H](NC(=O)[C@H](C)NC(=O)[C@@H](N)[C@@H](C)O)C(=O)N1CCC[C@H]1C(=O)N1CCC[C@H]1C(=O)N1CCC[C@H]1C(=O)N1CCC[C@H]1C(=O)N[C@@H](Cc1ccc(O)cc1)C(=O)N[C@@H](CCCNC(=N)N)C(=O)N[C@@H](Cc1c[nH]cn1)C(=O)N[C@@H](CCCNC(=N)N)C(=O)N[C@@H](CC(N)=O)C(=O)O — result for “binding enthalpy ΔH”: -3.67 ± 0.23 kcal/mol (WWOX WW1 domain; binding to WW1 domain, isothermal titration calorimetry; concentration not given, pH 7.0, 25 °C).
CC[C@H](C)[C@H](NC(=O)[C@H](CCCCN)NC(=O)[C@H](CCCCN)NC(=O)[C@H](CCCNC(=N)N)NC(=O)[C@H](CCC(N)=O)NC(=O)[C@H](CCC(=O)O)NC(=O)[C@H](CCC(=O)O)NC(=O)[C@@H](NC(=O)[C@H](CC(C)C)NC(=O)[C@@H]1CCCN1C(=O)[C@H](CC(C)C)NC(=O)[C@H](CO)NC(=O)[C@@H](N)CCSC)[C@@H](C)O)C(=O)N[C@@H](CCC(=O)O)C(=O)N[C@@H](CCC(=O)O)C(=O)N[C@@H](CC(N)=O)C(=O)N[C@@H](CCCNC(=N)N)C(=O)N[C@@H](CCC(N)=O)C(=O)N[C@@H](CCCCN)C(=O)N[C@@H](C)C(=O)N[C@@H](CC(C)C)C(=O)N[C@@H](C)C(=O)N[C@@H](CCCNC(=N)N)C(=O)N[C@@H](CCCNC(=N)N)C(=O)N[C@@H](C)C(=O)N[C@@H](CCC(=O)O)C(=O)N[C@@H](CCCCN)C(=O)N[C@@H](CC(C)C)C(=O)N[C@@H](CC(C)C)C(=O)N[C@@H](C)C(=O)N[C@@H](CCC(=O)O)C(=O)N[C@@H](CCC(N)=O)C(=O)O — result for “α-helical content increase”: 20% (Replication protein A 32 kDa subunit, C-terminal domain (RPA2, Homo sapiens, UniProt P15927); CD spectroscopy; 20 µM, pH 7.0, 25 °C; reference: free components).
For CC(C)C[C@H](NP(=O)(O)O[C@@H]1O[C@@H](C)[C@H](O)[C@@H](O)[C@H]1O)C(=O)N[C@@H](Cc1c[nH]c2ccccc12)C(=O)O, NEP2 activity read “inhibited” (Membrane metallo-endopeptidase-like 1, extracellular domain (Homo sapiens, UniProt Q495T6); inhibitor, measured: proBNP immunoreactivity; 50 µM, 2 and 6 h, with: proBNP 1.45 µM).
For CC(C)CC(NC(=O)C(CC(N)=O)NC(=O)C(CC(C)C)NC(=O)C(NC(=O)C(NC(=O)C1CCCN1C(=O)C(N)CCCNC(=N)N)C(C)O)C(C)O)C(=O)NCC(=O)NCC(=O)NCCCNC(=O)c1ccc(-c2n[nH]c3ccccc23)cc1 (centres unmarked), “loss of binding competition” read 600 fold (MAPK8 (Homo sapiens, UniProt P45983); inhibitor, DELFIA displacement; concentration not given, with: staurosporine 0.5 µM; reference: without staurosporine).
With CSCC[C@H](NC(=O)[C@@H]1CCCN1C(=O)[C@@H](NC(=O)[C@H](Cc1ccc(O)cc1)NC(=O)[C@H](C)NC(=O)[C@@H]1CCCN1C(=O)[C@@H]1CCCN1C(=O)[C@@H]1CCCN1C(=O)[C@H](CO)NC(=O)[C@H](Cc1c[nH]cn1)NC(=O)CN)[C@@H](C)O)C(=O)N[C@@H](CO)C(=O)O the TΔS was 1.04 ± 0.4 kcal/mol (WWOX WW1 domain; binding, ITC; pH 7.0, 25 °C).
For COc1c(O)ccc2c(=O)cc(-c3ccccc3)oc12, the inhibition was 42.7% (MAL12; enzyme activity, inhibitor, absorbance; 50 µM).
Under IC50, Clc1cccc(Nc2nnc(-c3ccccc3)c3ccccc23)c1 is recorded as “inactive” (Dual specificity calcium/calmodulin-dependent 3',5'-cyclic nucleotide phosphodiesterase 1B (Homo sapiens, UniProt Q01064); cGMP hydrolysis, inhibitor, fluorescence polarization; recombinant enzyme; up to 100 µM, 30 min preincubation, 30 °C, with: TAMRA-cGMP 25 nM).
`BzATP` — result for “deactivation time constant”: 21 ± 3.5 s (P2X purinoceptor 7 (P2rx7, Rattus norvegicus, UniProt Q64663, I214A); ion current, agonist, two-electrode voltage clamp; Xenopus laevis oocytes; 10 µM, I214A mutant).
N[C@@H](CCC(=O)O)C(=O)O gave a permeability ratio of ~0.26 (Protein tweety homolog 2 (Ttyh2, Mus musculus, UniProt Q3TH73); permeant anion, whole-cell patch clamp; HEK-293T co-expressing AQP4; 70 mM, hypo-osmotic solution; reference: compound over chloride).
CC(C)C[C@H](NC(=O)[C@@H](NC(=O)[C@@H](N)[C@@H](C)O)C(C)C)C(=O)N1CCC[C@H]1C(=O)N1CCC[C@H]1C(=O)N1CCC[C@H]1C(=O)N1CCC[C@H]1C(=O)N[C@@H](Cc1ccc(O)cc1)C(=O)N[C@@H](CCCNC(=N)N)C(=O)N[C@@H](Cc1c[nH]cn1)C(=O)N[C@@H](CCCNC(=N)N)C(=O)N[C@@H](CC(N)=O)C(=O)O has a ΔG of -5.7 ± 0.07 kcal/mol (WW domain-containing oxidoreductase, WW1-WW2 tandem domains (WWOX, Homo sapiens, UniProt Q9NZC7); binding, ITC; pH 7.0, 25 °C).
`H-AQHLLVLPRGLLGCTTLAK(Biotin) (Biotin = O=C1N[C@H]2[C@H](CS[C@H]2CCCCC(=O)*)N1)` — result for “competition with IgG1”: “inactive” (FcγRI; binding, ELISA; peptide; 16.6, 5.53, 1.84 µM, 2 h, 24 °C, with: human IgG1 1.3 µM).

Repeated from above:
COC(=O)c1scc(C)c1NC(=O)C(C)NCCN1CCOCC1 (centres unmarked): “capacity factor k′” 104 (SCN9A; cell membrane chromatography; higher = stronger binding).
CSc1ccc(/C=C2/C(C)=C(CC(=O)O)c3cc(F)ccc32)cc1 — result for IC50: “inactive” (PDE2A (Homo sapiens, UniProt O00408); cAMP hydrolysis, inhibitor, IMAP fluorescence polarization; up to 200 µM).
The inhibition of CC[C@]1(O)C[C@H]2CN(CCc3c([nH]c4ccccc34)[C@@](C(=O)OC)(c3cc4c(cc3OC)N(C=O)[C@H]3[C@@](O)(C(=O)OC)[C@H](OC(C)=O)[C@]5(CC)C=CCN6CC[C@]43[C@@H]65)C2)C1 is reported as 69.4% (SLC22A5 (Homo sapiens, UniProt O76082); transporter uptake, inhibitor; 50 µM).
The Emax of CNC(=O)[C@@]12C[C@@H]1[C@@H](n1cnc3c(NCc4cccc(Cl)c4)nc(C#CCCCCc4cn(C56CC7CC(CC(C7)C5)C6)nn4)nc31)[C@H](O)[C@@H]2O is reported as < 50% (ADORA3 (Homo sapiens, UniProt P0DMS8); cAMP inhibition, agonist; CHO; 10 µM, with: forskolin; reference: NECA at 10 µM).
For CC(C)CC(NC(=O)C(CC(N)=O)NC(=O)C(CC(C)C)NC(=O)C(NC(=O)C(NC(=O)C1CCCN1C(=O)C(N)CCCNC(=N)N)C(C)O)C(C)O)C(=O)NCC(=O)NCC(=O)NCCCNC(=O)c1ccc(-c2n[nH]c3ccccc23)cc1 (centres unmarked), “loss of binding competition” read 600 fold (MAPK8 (Homo sapiens, UniProt P45983); inhibitor, DELFIA displacement; concentration not given, with: staurosporine 0.5 µM; reference: without staurosporine).
